Assay results gathered from unrelated publications.
Cell line: IGROV-1

Cn1cncc1C1=CN(c2ncnc3[nH]cnc23)CCS1  GI50 (ovarian cancer): 12300 nM
C#C[C@@]1(O)[C@@H](CO)O[C@@H](n2cc(Cl)c3c(N)ncnc32)[C@@H]1O  TGI (SRB; NCI-60 screen): 475 nM
O=C(Nc1nnc2n3c(nc(-c4ccc(Cl)cc4)c1-2)SCC3=O)c1ccccc1  cell growth (SRB; 10 µM, NCI60 single-dose screen; reference: untreated): 94.6%
CCCCN1CCN(c2ccc3nc(-c4ccc5nc(-c6cc(OC)ccc6OC)[nH]c5c4)[nH]c3c2)CC1  growth percent (SRB; 10 µM, 48 h): 94.5%
Cc1cc(C)n(-c2nc(-c3ccc(Cl)cc3)c3c(NC(=O)c4ccccc4)nnc-3[nH]2)n1  cell growth (SRB; 10 µM, NCI60 single-dose screen; reference: untreated): 115%
Cc1cc(C)n(C(=S)[S][Au][PH](CCCCCC[PH]([Au][S]C(=S)n2nc(C)cc2C)(c2ccccc2)c2ccccc2)(c2ccccc2)c2ccccc2)n1  log10 TGI (cell growth, NCI-60 screen; ovarian cancer): -5.27
CCCC(CCC)C(=O)OCc1cn(-c2c3ccccc3nc3ccccc23)nn1  growth (NCI60 single dose; 10 µM): 95.8%
CCCCN1CCN(c2ccc3[nH]c(-c4ccc5[nH]c(-c6cc(OC)c(OC)c(OC)c6)nc5c4)nc3c2)CC1  growth percent (SRB; 10 µM, 48 h): 94.2%
O=c1ccn(Cc2cn(-c3c4ccccc4nc4ccccc34)nn2)c(=O)[nH]1  growth (NCI60 single dose; 10 µM): 80.9%
CSc1nc(-c2ccc(Cl)cc2)c2c(NC(=O)c3ccccc3)nnc-2[nH]1  cell growth (SRB; 10 µM, NCI60 single-dose screen; reference: untreated): 104%
C#C[C@@]1(O)[C@@H](CO)O[C@@H](n2cc(Br)c3c(N)ncnc32)[C@@H]1O  TGI (SRB; NCI-60 screen): 485 nM
CCCCN1CCN(c2ccc3[nH]c(-c4ccc5[nH]c(-c6ccc(C(F)(F)F)cc6)nc5c4)nc3c2)CC1  growth percent (SRB; 10 µM, 48 h): -82.3%
O=C(c1cc(Cc2n[nH]c(=O)c3ccccc23)ccc1F)N1CCN(C(=O)C2CC2)CC1  IC50: 939 nM
CN1CCN(c2ccc3[nH]c(-c4ccc5[nH]c(-c6ccc(C(F)(F)F)cc6)nc5c4)nc3c2)CC1  growth percent (SRB; 10 µM, 48 h): 71.2%
O=C1NC(c2ccccc2)(c2ccccc2)C(=O)N1Cc1cn(-c2cc3ccccc3oc2=O)nn1  growth (NCI60 single dose; 10 µM): 61.4%
O=C1NC(=NCc2cccs2)S/C1=C\c1ccc2ncccc2c1  IC50 (MTS; NCI60 panel): > 10000 nM
O=C(Nc1nnc2n3c(Cc4ccccc4)n[nH]c3nc(-c3ccc(Cl)cc3)c1-2)c1ccccc1  cell growth (SRB; 10 µM, NCI60 single-dose screen; reference: untreated): 118%
CCCCN1CCN(c2ccc3[nH]c(-c4ccc5[nH]c(-c6ccc(OCC)cc6)nc5c4)nc3c2)CC1  growth percent (SRB; 10 µM, 48 h): 71.9%
O=C(Nc1nnc2n3c(=S)[nH][nH]c3nc(-c3ccc(Cl)cc3)c1-2)c1ccccc1  cell growth (SRB; 10 µM, NCI60 single-dose screen; reference: untreated): 97.5%
COC(=O)/C=C1\C(=O)C=C2C3CC4CC(CCC4(C)N21)C3(C)NC(C)=O (stereo not shown)  IC50 (cell growth; NCI screen): 20000 nM
CCCN1CCN(c2ccc3[nH]c(-c4ccc5[nH]c(-c6ccc(OCC)c(OCC)c6)nc5c4)nc3c2)CC1  growth percent (SRB; 10 µM, 48 h): -13.2%
NNc1nc(-c2ccc(Cl)cc2)c2c(NC(=O)c3ccccc3)nnc-2[nH]1  cell growth (SRB; 10 µM, NCI60 single-dose screen; reference: untreated): 100%
